Experimental data from different studies.
Protocols differ between the studies behind these lines. In brackets after ≈: the same amount, converted by molar mass.
Organism: Klebsiella pneumoniae

SMILES = C[C@@H](O)[C@H]1C(=O)N2C(C(=O)O)=C(S[C@@H]3CN[C@H](C(=O)N(C)C)C3)[C@H](C)[C@H]12; system = ATCC 700603, mouse lung infection, lung; setting = intraperitoneal, 10 mg/kg, 24 h; endpoint = reduction of bacterial load; result = 94%
SMILES = C[C@@H](O)[C@H]1C(=O)N2C(C(=O)[O-])=C(SC3Cn4cnc[n+]4C3)[C@H](C)[C@H]12 (stereo partly shown); test = checkerboard; system = carbapenem-resistant; setting = concentration not given, together with: anionic gold nanoparticle 8 µg/mL; how to read = relative to: MIC alone over combination; endpoint = MIC fold reduction; result = > 4 fold
SMILES = CCN1CCN(C(=O)N[C@@H](C(=O)N[C@@H]2C(=O)N3[C@@H]2SC(C)(C)[C@@H]3C(=O)O)c2ccccc2)C(=O)C1=O; test = broth microdilution; system = ATCC 43816 acrAB overexpressor; setting = together with: colistin 0.5 mg/L; endpoint = MIC; result = 4 µg/mL
SMILES = C[C@@H](O)[C@H]1C(=O)N2C(C(=O)O)=C(S[C@@H]3CN[C@H](CNS(N)(=O)=O)C3)[C@H](C)[C@H]12; test = checkerboard; system = carbapenem-resistant; setting = concentration not given, together with: anionic gold nanoparticle 8 µg/mL; how to read = relative to: MIC alone over combination; endpoint = MIC fold reduction; result = 16 fold
SMILES = CC[C@H](C)CCCCC(=O)N[C@@H](CCN)C(=O)N[C@H](C(=O)N[C@@H](CCN)C(=O)N[C@H]1CCNC(=O)[C@H]([C@@H](C)O)NC(=O)[C@H](CCN)NC(=O)[C@H](CCN)NC(=O)[C@H](CC(C)C)NC(=O)[C@@H](CC(C)C)NC(=O)[C@H](CCN)NC1=O)[C@@H](C)O; test = NPN efflux; system = ATCC 43816 ΔacrAB; setting = 5 to 100 µM except 5 µM; endpoint = time to pre-efflux NPN fluorescence; result = ≤ 2 min
SMILES = O=[N+]([O-])c1cc2cc3ccc4oc([N+](=O)[O-])cc4c3cc2o1; test = REMA; endpoint = MIC90; result = 2 µg/mL (≈ 6.71 µM)
SMILES = CC[C@H](C)[C@H](NC(=O)[C@H](Cc1c[nH]c2ccccc12)NC(=O)[C@@H](NC(=O)[C@H](Cc1ccccc1)NC(=O)[C@@H]1CCCN1C(=O)[C@@H](NC(=O)[C@H](C)N)[C@@H](C)CC)[C@@H](C)CC)C(=O)N[C@@H](Cc1ccccc1)C(=O)N[C@@H](CCCNC(=N)N)C(=O)N[C@@H](CC(C)C)C(=O)N[C@@H](CC(C)C)C(=O)N[C@@H](CCCNC(=N)N)C(=O)N[C@@H](CCCCN)C(=O)NCC(N)=O; system = ATCC 700603; setting = 18 h, 37 °C; endpoint = MBC; result = > 15 µM
SMILES = COc1c([N+](=O)[O-])oc2ccc3ccccc3c12; test = REMA; endpoint = MIC90; result = > 32 µg/mL
SMILES = CC[C@H](C)[C@H](NC(=O)[C@H](CC(C)C)NC(=O)[C@H](CCCNC(=N)N)NC(=O)[C@H](CC(C)C)NC(=O)[C@@H](NC(=O)[C@@H](NC(=O)[C@H](CCCNC(=N)N)NC(=O)[C@@H](NC(=O)[C@@H](NC(=O)[C@H](CCCNC(=N)N)NC(=O)[C@H](CCCNC(=N)N)NC(=O)[C@H](CCCNC(=N)N)NC(=O)[C@H](CO)NC(=O)[C@@H](N)CCCNC(=N)N)[C@@H](C)CC)[C@@H](C)CC)[C@@H](C)CC)C(C)C)C(=O)N[C@@H](CCCNC(=N)N)C(=O)N[C@@H](CCCNC(=N)N)C(=O)N[C@@H](CO)C(=O)N[C@@H](C)C(=O)N[C@@H](CCCNC(=N)N)C(N)=O; endpoint = MIC range; result = 4 to 8 µM (≈ 9.78 to 19.6 µg/mL)
SMILES = CC[C@H](C)[C@H](NC(=O)[C@H](Cc1ccc(O)cc1)NC(=O)[C@@H](NC(=O)[C@H](Cc1c[nH]c2ccccc12)NC(=O)[C@@H]1CCCN1C(=O)[C@@H](NC(=O)[C@H](C)N)[C@@H](C)CC)[C@@H](C)CC)C(=O)N[C@@H](Cc1ccc(O)cc1)C(=O)N[C@@H](CCCNC(=N)N)C(=O)N[C@@H](CC(C)C)C(=O)N[C@@H](CC(C)C)C(=O)N[C@@H](CCCNC(=N)N)C(=O)N[C@@H](CCCCN)C(=O)NCC(=O)O; system = ATCC 700603; setting = 18 h, 37 °C; endpoint = MBC; result = 15 µM (≈ 26.4 µg/mL)
SMILES = Nc1c([N+](=O)[O-])oc2ccc3ccccc3c12; test = REMA; endpoint = MIC90; result = 16 µg/mL (≈ 70.1 µM)
SMILES = C[C@@H](O)[C@H]1C(=O)N2C(C(=O)O)=C(S[C@@H]3CN[C@H](C(=O)N(C)C)C3)[C@H](C)[C@H]12; system = NDM-producing, neutropenic BALB/c mouse, thigh infection, thigh; setting = dose not given, 4 h; endpoint = bacterial burden, best; result = 8 log10 CFU/thigh
SMILES = NCC[C@H](O)C(=O)N[C@@H]1C[C@H](N)[C@@H](O[C@H]2O[C@H](CN)[C@@H](O)[C@H](O)[C@H]2O)[C@H](O)[C@H]1O[C@H]1O[C@H](CO)[C@@H](O)[C@H](N)[C@H]1O; test = growth inhibition, checkerboard; setting = compound alone; endpoint = IC90; result = 58.4 µg/mL
SMILES = C[C@@H](O)[C@H]1C(=O)N2C(C(=O)O)=C(S[C@@H]3CN[C@H](C(=O)N(C)C)C3)[C@H](C)[C@H]12; test = checkerboard; system = carbapenem-resistant; setting = concentration not given, together with: anionic gold nanoparticle 8 µg/mL; how to read = relative to: MIC alone over combination; endpoint = MIC fold reduction; result = 4 fold
SMILES = COc1cc2oc([N+](=O)[O-])cc2c2ccccc12; test = REMA; endpoint = MIC90; result = > 32 µg/mL
SMILES = CC[C@H](C)[C@H](NC(=O)[C@H](C)NC(=O)[C@H](CCCCN)NC(=O)[C@H](CC(C)C)NC(=O)[C@H](C)NC(=O)[C@@H](NC(=O)[C@H](Cc1c[nH]cn1)NC(=O)[C@H](CC(C)C)NC(=O)[C@@H](NC(=O)[C@@H](NC(=O)[C@H](CCCCN)NC(=O)[C@H](C)NC(=O)[C@H](C)NC(=O)[C@H](CO)NC(=O)[C@H](CCCCN)NC(=O)[C@H](Cc1ccccc1)NC(=O)[C@@H](NC(=O)[C@H](CCCCN)NC(=O)[C@H](CC(C)C)NC(=O)[C@H](Cc1ccccc1)NC(=O)[C@H](CO)NC(=O)[C@H](CCCCN)NC(=O)[C@H](Cc1c[nH]c2ccccc12)NC(=O)[C@H](CCCCN)NC(C)=O)[C@@H](C)O)[C@@H](C)O)C(C)C)[C@@H](C)O)C(=O)N[C@@H](CO)C(=O)N[C@@H](CO)C(N)=O; system = ATCC 1706; endpoint = MBC50; result = 16 µg/mL (≈ 5.45 µM)
SMILES = C[C@H]1[C@H](NC(=O)/C(=N\OC(C)(C)C(=O)O)c2csc(N)n2)C(=O)N1S(=O)(=O)O; system = ESBL producing, ICR mice, systemic lethal infection; setting = up to 60 mg/kg; endpoint = survival rate; result = 100%
SMILES = COc1ccc2c(ccc3oc([N+](=O)[O-])c(C)c32)c1; test = REMA; endpoint = MIC90; result = > 32 µg/mL
SMILES = CC[C@H](C)[C@H](N)C(=O)N[C@@H](CC(C)C)C(=O)NCC(=O)N[C@H](CCCNC(=N)N)C(=O)N[C@H](C(=O)N[C@@H](Cc1ccccc1)C(=O)N[C@@H](CCCCN)C(=O)NCC(=O)N[C@H](C(=O)N[C@@H](CCCCN)C(=O)N[C@@H](CC(=O)O)C(=O)N[C@H](C(=O)N[C@@H](CC(C)C)C(N)=O)[C@@H](C)CC)[C@@H](C)CC)[C@@H](C)CC; test = broth microdilution; system = ATCC 27736, Mueller-Hinton broth; setting = 16 h, 37 °C; endpoint = MIC; result = > 50 µM
SMILES = O=[N+]([O-])c1cc2c(ccc3c2ccc2cc([N+](=O)[O-])oc23)o1; test = REMA; endpoint = MIC90; result = > 32 µg/mL
SMILES = CC[C@H](C)[C@H](NC(=O)[C@H](Cc1ccc(O)cc1)NC(=O)[C@@H](NC(=O)[C@H](Cc1ccc(O)cc1)NC(=O)[C@@H]1CCCN1C(=O)[C@@H](NC(=O)[C@H](C)N)[C@@H](C)CC)[C@@H](C)CC)C(=O)N[C@@H](Cc1c[nH]c2ccccc12)C(=O)N[C@@H](CCCNC(=N)N)C(=O)N[C@@H](CC(C)C)C(=O)N[C@@H](CC(C)C)C(=O)N[C@@H](CCCNC(=N)N)C(=O)N[C@@H](CCCCN)C(=O)NCC(=O)O; system = ATCC 700603; setting = 18 h, 37 °C; endpoint = MBC; result = > 15 µM
SMILES = COc1ccc2c(ccc3oc([N+](=O)[O-])cc32)c1; test = REMA; endpoint = MIC90; result = 0.125 µg/mL (≈ 0.514 µM)
SMILES = CC[C@H](C)[C@H](NC(=O)[C@H](Cc1c[nH]c2ccccc12)NC(=O)[C@@H](NC(=O)[C@H](Cc1ccc(O)cc1)NC(=O)[C@@H]1CCCN1C(=O)[C@@H](NC(=O)[C@H](C)N)[C@@H](C)CC)[C@@H](C)CC)C(=O)N[C@@H](Cc1ccc(O)cc1)C(=O)N[C@@H](CCCNC(=N)N)C(=O)N[C@@H](CC(C)C)C(=O)N[C@@H](CC(C)C)C(=O)N[C@@H](CCCNC(=N)N)C(=O)N[C@@H](CCCCN)C(=O)NCC(N)=O; system = ATCC 700603; setting = 18 h, 37 °C; endpoint = MBC; result = > 15 µM
SMILES = CCOC(=O)COc1ccc2ccc3oc([N+](=O)[O-])cc3c2c1; test = REMA; endpoint = MIC90; result = 0.25 µg/mL (≈ 0.793 µM)
SMILES = Cn1c(=O)ccc2ccc(F)c(CCNC[C@H]3CN(c4cnc5c(n4)NC(=O)CO5)C(=O)O3)c21; endpoint = MIC50; result = 0.5 µg/mL (≈ 1.07 µM)

A few entries again:
SMILES = CC[C@H](C)CCCCC(=O)N[C@@H](CCN)C(=O)N[C@H](C(=O)N[C@@H](CCN)C(=O)N[C@H]1CCNC(=O)[C@H]([C@@H](C)O)NC(=O)[C@H](CCN)NC(=O)[C@H](CCN)NC(=O)[C@H](CC(C)C)NC(=O)[C@@H](CC(C)C)NC(=O)[C@H](CCN)NC1=O)[C@@H](C)O; test = NPN efflux; system = ATCC 43816 ΔacrAB; setting = 5 to 100 µM except 5 µM; endpoint = time to pre-efflux NPN fluorescence; result = ≤ 2 min
SMILES = CC[C@H](C)[C@H](N)C(=O)N[C@@H](CC(C)C)C(=O)NCC(=O)N[C@H](CCCNC(=N)N)C(=O)N[C@H](C(=O)N[C@@H](Cc1ccccc1)C(=O)N[C@@H](CCCCN)C(=O)NCC(=O)N[C@H](C(=O)N[C@@H](CCCCN)C(=O)N[C@@H](CC(=O)O)C(=O)N[C@H](C(=O)N[C@@H](CC(C)C)C(N)=O)[C@@H](C)CC)[C@@H](C)CC)[C@@H](C)CC; test = broth microdilution; system = ATCC 27736, Mueller-Hinton broth; setting = 16 h, 37 °C; endpoint = MIC; result = > 50 µM
SMILES = C[C@@H](O)[C@H]1C(=O)N2C(C(=O)O)=C(S[C@@H]3CN[C@H](C(=O)N(C)C)C3)[C@H](C)[C@H]12; system = NDM-producing, neutropenic BALB/c mouse, thigh infection, thigh; setting = dose not given, 4 h; endpoint = bacterial burden, best; result = 8 log10 CFU/thigh
